Published values gathered from unrelated publications.
A part holds a random share of what one study measured.

Study 1
Target: Sal-like protein 4, full length isoform B (SALL4, Homo sapiens, UniProt Q9UJQ4-2, residues 1-616)
Method: universal PBM
Form: double-stranded DNA, one strand shown
Medium: in vitro
Tested at: not given
Notes: 8-mer, flanks averaged, mean of replicates
Direction: higher = stronger binding
Residues (chain): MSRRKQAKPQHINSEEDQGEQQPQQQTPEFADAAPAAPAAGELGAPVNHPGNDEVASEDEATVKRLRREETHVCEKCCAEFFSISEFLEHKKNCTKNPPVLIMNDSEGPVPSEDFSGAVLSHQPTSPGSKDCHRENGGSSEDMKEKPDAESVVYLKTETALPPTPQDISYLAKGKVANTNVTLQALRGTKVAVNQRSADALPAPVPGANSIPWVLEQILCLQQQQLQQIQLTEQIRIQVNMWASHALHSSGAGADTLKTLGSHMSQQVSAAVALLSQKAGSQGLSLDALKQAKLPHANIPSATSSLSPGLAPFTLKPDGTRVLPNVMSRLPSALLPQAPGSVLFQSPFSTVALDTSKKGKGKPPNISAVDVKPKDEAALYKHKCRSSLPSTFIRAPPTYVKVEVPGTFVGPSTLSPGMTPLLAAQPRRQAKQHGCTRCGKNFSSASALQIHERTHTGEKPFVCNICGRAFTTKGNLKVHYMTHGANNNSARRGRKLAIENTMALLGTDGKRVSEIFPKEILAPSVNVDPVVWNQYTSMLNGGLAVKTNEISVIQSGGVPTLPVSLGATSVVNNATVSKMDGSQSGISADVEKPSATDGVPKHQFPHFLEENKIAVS
Sequence	E-score
CCATGGAG	-0.15
TTAAATAA	0.327
ATACTGCA	0.106
CTTTCATC	-0.0495
AGAATTAC	0.15
AGTTTAAT	0.257
CGCTCACA	-0.171
GTCCCAAA	-0.0968
GAGGTCTA	-0.102
CGTGGCCA	-0.222
ATCACTTG	0.0559
ATTTTCCG	0.344
GAACGTTC	-0.0797
CACGGCCC	-0.279
ATTAACAG	0.154
GACCTCCA	-0.208
CCTCAACG	-0.137
CACGCTAA	0.0481
CCTTGAAC	-0.128
CTCACTAC	0.0521

Study 2
Target: Interferon regulatory factor 7, full length, phosphomimetic (IRF7, Homo sapiens, UniProt Q92985, residues 1-503, S101K/S471D/S472D/S475D/S476D/S477D/S483D/S484D/S487D)
Method: protein-binding microarray
Form: double-stranded DNA, one strand shown
Medium: in vitro
Tested at: 250 nM
Notes: 60-bp whole probe
Added: salmon DNA 0.4 mg/ml
Reference: random background probes
Direction: higher = stronger binding
Shared flanks, not repeated: GCCTAGCAC … GTCTTGATTCGCTTGACGCTGCTG
Residues (chain): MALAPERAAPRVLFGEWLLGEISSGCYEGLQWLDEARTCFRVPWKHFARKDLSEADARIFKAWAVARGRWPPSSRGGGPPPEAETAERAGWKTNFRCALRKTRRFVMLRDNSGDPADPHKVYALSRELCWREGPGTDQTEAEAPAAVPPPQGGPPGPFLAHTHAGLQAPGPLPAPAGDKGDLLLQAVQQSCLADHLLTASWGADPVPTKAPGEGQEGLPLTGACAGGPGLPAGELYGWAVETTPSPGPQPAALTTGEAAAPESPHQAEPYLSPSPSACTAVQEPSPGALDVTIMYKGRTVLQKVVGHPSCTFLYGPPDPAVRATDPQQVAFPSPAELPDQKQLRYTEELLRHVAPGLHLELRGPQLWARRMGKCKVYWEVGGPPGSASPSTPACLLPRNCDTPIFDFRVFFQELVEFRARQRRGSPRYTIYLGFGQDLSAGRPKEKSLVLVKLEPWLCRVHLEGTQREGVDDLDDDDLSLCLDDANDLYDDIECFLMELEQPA
Sequence	log fluorescence
TTTTCACTTTCTTTAACATAGTGCTAG	3.47 z-score
TTAGAACTGAGACTGGATTCGTGCTAG	0.275 z-score
AACGGTCTCCTACTGCTGACGTGCTAG	-0.185 z-score
GACGGTATCAGGTATCGGGACGTGCTA	-0.0341 z-score
TTAGGCTTCGACTTTCGGTTAGTGCTA	1.37 z-score
TCATTTTTCCTAATTGAACTGTGCTAG	2.6 z-score
TCATTATTAGTGACTCAGACTGTGCTA	0.746 z-score
TATTTTCTGAATGTCTTCCCGTGCTAG	2.95 z-score
TTAGGTTTCCTTTTCCTTAAGTGCTAG	7.64 z-score
GACAGACTGCTTTTCCTGACGTGCTAG	0.133 z-score
GACGCACTGCTTATCCTGACGTGCTAG	-0.112 z-score
TTACGACTGGGTCTCGGTTAGTGCTAG	0.966 z-score
TTAGGTCTCCTACTGGTTTAGTGCTAG	-0.295 z-score
TTAGGAGTGGGGACTGGGTTAGTGCTA	-0.415 z-score
TTAGGTCTCCTTATCCATTAGTGCTAG	0.385 z-score
TCAGTTTTCATTTTATGACTGTGCTAG	3.82 z-score
GACGGTATCGTGTATCGGGACGTGCTA	-0.191 z-score
TCAACAATGGCTTTGCCACTGTGCTAG	-0.733 z-score
GACGGTTTCGACTCTCGGGACGTGCTA	10.6 z-score
GTTTCTTTTCTTTTCTTTTTGTGCTAG	7.03 z-score
TCAGATTTCAGACTGGATTAGTGCTAG	0.367 z-score
TTAGGTATCGGTTTCAGTTAGTGCTAG	6.37 z-score

Study 3
Target: RNA binding protein fox-1 homolog 2, RRM domain, GST-SBP tag (RBFOX2, Homo sapiens, UniProt O43251-10, residues 100-194)
Method: RNA Bind-n-Seq
Form: RNA
Medium: in vitro
Tested at: 365 nM
Notes: natural RNA segment, single round, ends assumed
Reference: no-protein control
Direction: higher = stronger binding
Shared flanks, not repeated: GGGAGUUCUACAGUCCGACGAUC … UGGAAUUCUCGGGUGCCAA
Construct (chain): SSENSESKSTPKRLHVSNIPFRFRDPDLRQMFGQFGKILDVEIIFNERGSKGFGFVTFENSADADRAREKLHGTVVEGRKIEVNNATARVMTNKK
Sequence	RBNS enrichment (R)
CCCACAGCAGCCACGCUAGAAGCUUAAUGGAUUCGGAGCCCAUGAGAGAAAGAACACAGGCUUCCUGGUCUGCCCUCCCCCUCCGCUCACCAGGAGCUAAACUGAGAGGC	1.69
AGCAACUAGUUCACUCAUAGUCUACAGUUUUAUGUUCUUUUGGCUUAAAGUUAAAAGAAAAUACAGAAUACCAGCAGAACUUGAUUAUUGUUUUCUGUCCAAACUUCUUA	0.267
CUCACCAGGACCCCUUAUGUAGUGUGCUAUCCUCUAAACUCCUAAGCUAAGUCACCCUGGUGUCAUUCUGUCAUCUGUGCAACUAUUAUUUCCUUUGGGAGUUUCCUCUU	0.324
AGCCUCGUCUUCUCCUGCCCACAGCCCCUGCCAGAGUUCUUUUGCCCAGCAGAGGCACCCCUCAUGAAGGAAGCCAUUGCACUGUGAAUACUGAACCUGCCUGCUGAACA	1.19
ACUUUGUGAACUGACUUGCUGUAUUUGCACUUUGAGCUCUUGAAAUAAAUGUGAUUUUUGUGUGAUUAUCUGGUUUCCAGUUUUAAACAUUAACUGUCACCUUUUAUUCU	0.352
CUGCUCUAGACUCUUACAAAAUGGCUACACUUAGCACAUACUCUGCCCUGGCUAUAUAUUAUAUUGGGCCAUAGAGAUCAGCAAUGUAUCAAUUAAUAGAUUAAUCCAGA	0.455
UUCUGCUGCCACUUGUGAAAACCGAAAAAAAACAAGACUACAUAGCACCGACUUUUUGAAAAUCAGAUAAACAUGGUUAUUGACAUUUUUUGAGUCAGAGUAGGGCUGGA	0.295
UACUGACAAAUAUGUAUUUCCUAUAUGUUUAUACUUUGAUUAUAAAAAAGUAUUUUGUUUUGAUUUUUUAACUUGCUGCAUUGUUUUGAUACUUUCUAUUUUUUUGGUCA	3.87
CUACCUCUCCCCUCAUCAGAUCAGCUAAGCUGUGAGGUUCUAAGAGGUCUAGGUGUGUUUAAAUUUCUGAAGAUCAUUUUUCAUUAUAACAUUCAGGCCAGACACUUGAA	0.443
UGAAAGAAGCAAUAGUAACAAUCUUAUAUUGGAUCAUGGGGGAAGCAAAUGUGUGUAUUUUAAGUGAGUUCCUGCGAGUCAUACACUGCGAUGAUGCUCCGCCUUUACCC	0.53
GGCUUGGUGUUUAAUGGGUUAAAAAUAAGCCACUGCCUGACAUCCCAACAUUUGACACCCCAGCAAUGUGUGACUCCCCCAACAUUCCACUAUGCCAUCCUGCAGCUGAA	0.85
AGCAGUUUGCUCUGUGCGUCCACGGCCUAGGUGUUUCUUGGGGGUGUUGGGAGGGCAGGAGCAUUCCUUGAGGAGGAGUGGCAACAUCAAAGUGUUUGUGUCCCUUGCCA	0.364

Study 4
Target: Ras GTPase-activating protein-binding protein 1, full length (G3BP1, Homo sapiens, UniProt Q13283)
Sequence of UniProt Q13283 (whole entry, looked up): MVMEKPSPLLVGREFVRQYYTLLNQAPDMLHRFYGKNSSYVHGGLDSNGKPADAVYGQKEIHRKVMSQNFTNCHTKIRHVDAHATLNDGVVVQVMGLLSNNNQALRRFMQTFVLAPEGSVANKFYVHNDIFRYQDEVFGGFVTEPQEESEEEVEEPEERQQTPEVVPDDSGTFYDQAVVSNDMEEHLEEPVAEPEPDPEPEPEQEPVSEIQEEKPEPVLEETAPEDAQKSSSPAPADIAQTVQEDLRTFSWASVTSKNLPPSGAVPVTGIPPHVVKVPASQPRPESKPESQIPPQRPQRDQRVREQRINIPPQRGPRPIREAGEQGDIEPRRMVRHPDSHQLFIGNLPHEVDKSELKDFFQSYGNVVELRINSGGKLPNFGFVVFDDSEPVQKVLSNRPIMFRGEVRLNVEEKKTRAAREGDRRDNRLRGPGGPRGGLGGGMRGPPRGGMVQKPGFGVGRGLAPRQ
Method: RNA Bind-n-Seq
Form: RNA
Medium: in vitro
Tested at: 200 nM
Notes: whole 134-nt RNA, ends assumed
Added: 150 mM LiCl
Reference: input library
Direction: higher = stronger binding
Each molecule: 7-deaza-guanosine replaces G
Shared flanks, not repeated: GGGAGUUCUACAGUCCGACGAUC … UGGAAUUCUCGGGUGUCAAGG
Sequence	log2 enrichment
CUCAAGUCCUGUGCUACACAUCGUAUGUACCGAAUCGGGGUGGGGUGGGUGGGGAAAGUAUUAUGUUACGCCGUUCGGAUCUGCACUUCC	-0.0145
UACAGGAGCUUCCUGGGACUGACCUGCCUGAUGCAAAUUUCUACUCGGACGGAAGACUUCAUCAUUGACACCCUCGAGCUUCGAAGUGAC	-1.13
AGUCCUGUGCUACACAUCGUAUGUACCGAAUCGGGCCCCGGGCCCCGGGGCCCCGGGGAAAGUAUUAUGUUACGCCGUUCGGAUCUGCAC	-2.6
CACAGACAACACGCACCCACACAGACACAGAGGGAAGGGGUUGGGAUGGGGACAGGGUGCACAGCAGGGCGGGGUAGGAAACCAGCCCCU	0.528
UUGUUUAUUCUGUGUCUUUUGCCUCCUUUCCUACAGAUGUCCGGCAGGAUAAUGCUGCUGGCAGAGCUGGCUCCAGUAGCCUUACACAGG	1.1
CAAGUCCUGUGCUACACAUCGUAUGUACCGAAUCGGGUGGGAAAGGGUUUUUGGGAAAGUAUUAUGUUACGCCGUUCGGAUCUGCACUUC	-0.806
ACCAUGCAGGUGGGCAUCUUUGGGAAGUGGGGCAAGGGGGGGAUAGGGAGGGGUGUAACACUUUGGGAACAGGUGGUCCCAGGUCGUUUC	0.408
GUCCUGUGCUACACAUCGUAUGUACCGAAUCGGGGUUUGGGGUUUGGGGAAAAAGGGGAAAGUAUUAUGUUACGCCGUUCGGAUCUGCAC	-0.63
UCCUGUGCUACACAUCGUAUGUACCGAAUCGGGGAAAAAGGGGUUUUUGGGGUUUGGGGAAAGUAUUAUGUUACGCCGUUCGGAUCUGCA	-0.881
UCCUUCCUUUUUUUGUCUUAAACAUAGGACAUGGAUUUGAUUGACAUACUUUGGAGGCAAGAUAUAGAUCUUGGAGUAAGUCGAGAAGUA	-0.824
CUCAAGUCCUGUGCUACACAUCGUAUGUACCGAAUCGGUUUUUGGUUUGGAGGAAAGUAUUAUGUUACGCCGUUCGGAUCUGCACUUCCA	0.109

Repeated from above (study 2):
Sequence	log fluorescence
TTAGGAGTGGGGACTGGGTTAGTGCTA	-0.415 z-score
TTAGGTCTCCTTATCCATTAGTGCTAG	0.385 z-score
TCAGTTTTCATTTTATGACTGTGCTAG	3.82 z-score
GACGGTATCGTGTATCGGGACGTGCTA	-0.191 z-score
TCAACAATGGCTTTGCCACTGTGCTAG	-0.733 z-score
GACGGTTTCGACTCTCGGGACGTGCTA	10.6 z-score
GTTTCTTTTCTTTTCTTTTTGTGCTAG	7.03 z-score
TCAGATTTCAGACTGGATTAGTGCTAG	0.367 z-score
TTAGGTATCGGTTTCAGTTAGTGCTAG	6.37 z-score
